{"data": "Measured values gathered from unrelated publications", "note": "Parts stem from different laboratories: compare values within a part only. Several values in a cell are separate wells, animals, samples, runs or records."}
{"data": "Study 1", "SMILES": "CNC(=N)NCCC[C@H](NC(=O)[C@H](CC(C)C)NC(=O)NNC(=O)[C@H](Cc1ccccc1)NC(=O)[C@H](CO)NC(=O)[C@H](CC(N)=O)NC(=O)[C@@H](Cc1cccnc1)NC(=O)[C@H](N)Cc1ccc(O)cc1)C(=O)NCC(N)=O", "tested at": "0.1 µM", "reference": "DMSO"}
{"cell line": "sample BA colorectal tumour organoid", "viability": "81.2%"}
{"cell line": "sample B colorectal tumour organoid", "conditions": "replicate 1", "viability": "107%"}
{"cell line": "normal-adjacent epithelium patient-derived organoids sample H", "assay": "CellTiter-Glo", "viability": "117% and 95.8%"}
{"data": "Study 2", "target": "Histone acetyltransferase KAT6A, winged helix 1, GST fusion (KAT6A, Homo sapiens, UniProt Q92794, residues 1-85)", "technique": "protein binding microarray", "molecule type": "double-stranded DNA, one strand shown", "matrix": "in vitro", "tested at": "not given", "setting": "8-mer, flanks averaged, mean of 2 arrays, mostly near background", "reference": "not given", "direction": "higher = stronger binding", "Target sequence (chain)": "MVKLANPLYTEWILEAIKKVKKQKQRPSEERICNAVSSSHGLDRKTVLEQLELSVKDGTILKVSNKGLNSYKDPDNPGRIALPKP"}
{"Oligonucleotide": "AGTCTGAG", "E-score": -0.191}
{"Oligonucleotide": "CTCGATTC", "E-score": 0.0165}
{"Oligonucleotide": "CACCCTGC", "E-score": -0.0524}
{"Oligonucleotide": "CGAGGAAA", "E-score": -0.146}
{"Oligonucleotide": "CCCGGTTC", "E-score": 0.166}
{"Oligonucleotide": "GGCCATAA", "E-score": -0.17}
{"Oligonucleotide": "CCCTATGC", "E-score": -0.118}
{"Oligonucleotide": "AGACTCCT", "E-score": -0.162}
{"data": "Study 3", "target": "HLA class I histocompatibility antigen, A alpha chain, allele A*26:03 (Homo sapiens, UniProt P04439)", "effect on": "peptide-MHC binding", "molecule type": "peptide", "tested at": "concentration not given"}
{"Molecule": "IYTTNDNNY", "binding": "inactive"}
{"Molecule": "RELYYRLKF", "binding": "inactive"}
{"Molecule": "ISDPLTSGL", "binding": "inactive"}
{"Molecule": "FENDIDEIL", "binding": "inactive"}
{"Molecule": "RSLFNTVATLY", "binding": "inactive"}
{"Molecule": "NYFNRMFHF", "binding": "inactive"}
{"Molecule": "RENQVAVVR", "binding": "inactive"}
{"Molecule": "RVYKNYDPR", "binding": "inactive"}
{"Molecule": "STYQPLPLY", "binding": "inactive"}
{"Molecule": "DIKDTKEAL", "binding": "inactive"}
{"Molecule": "TVIRFWHAM", "binding": "active"}
{"Molecule": "RYPGVMYAF", "binding": "inactive"}
{"Molecule": "FLMRNAIQY", "binding": "inactive"}
{"Molecule": "REMGIVDLL", "binding": "inactive"}
{"Molecule": "RYSNFAWYF", "binding": "inactive"}
{"Molecule": "SEINNLNLT", "binding": "inactive"}
{"Molecule": "TKDAERGKL", "binding": "inactive"}
{"Molecule": "YISPIFIPM", "binding": "active"}
{"data": "Study 4", "target": "Fragile X messenger ribonucleoprotein 1, C-terminal low-complexity region (Fmr1, Mus musculus, UniProt P35922)", "technique": "RNA Bind-n-Seq", "molecule type": "RNA", "matrix": "in vitro", "tested at": "200 nM", "setting": "whole 134-nt RNA, ends assumed", "with": "150 mM LiCl", "reference": "input library", "direction": "higher = stronger binding", "library": "7-deaza-guanosine replaces G"}
{"Oligonucleotide": "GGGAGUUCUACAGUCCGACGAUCUGGGAGGUAGAUUUUGUUUAUUUUUUUAGCUCAUUUCCAGGGGUGGGAAUUUUUUUUUAAUAUGUGUCAUGAAUAAAGUUGUUUUUGAAAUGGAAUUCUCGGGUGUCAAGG", "log2 enrichment": 1.23}
{"Oligonucleotide": "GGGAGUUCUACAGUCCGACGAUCUCAAGUCCUGUGCUACACAUCGUAUGUACCGAAUCGGGGUUGGGUUGGGGUUGGAAAGUAUUAUGUUACGCCGUUCGGAUCUGCACUUCCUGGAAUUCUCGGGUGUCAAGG", "log2 enrichment": -0.696}
{"Oligonucleotide": "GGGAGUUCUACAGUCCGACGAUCUAACUUUAGAGGAGGAUCUGAUGGAUAUGGCAGUGGACGUGGAUUUGGGGAUGGCUAUAAUGGGUAUGGAGGAGGACCUCGAGGUGGCAAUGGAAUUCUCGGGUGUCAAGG", "log2 enrichment": 0.752}
{"Oligonucleotide": "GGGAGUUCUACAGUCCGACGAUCUCCUGCCAACCUCUCUUAAUGCUCUGAGAGCCUCUGGUGUUGACAUAGAAGAGGAAACGGAGAAGAACCUGGAAAAGGUACAGACUAUCAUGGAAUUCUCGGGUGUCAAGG", "log2 enrichment": -2.62}
{"Oligonucleotide": "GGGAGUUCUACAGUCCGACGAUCUGGGAGGUGGAUUUUGUUUAUUUUUUUAGCUCAUUUCCAGGGGUGGGAAUUUUUUUUUAAUAUGUGUCAUGAAUAAAGCUGUUUUUGAAAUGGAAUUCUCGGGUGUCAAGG", "log2 enrichment": 0.159}
{"Oligonucleotide": "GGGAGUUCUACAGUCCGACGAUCCUUCUUGCAUGCUCGGCUCCGGACAGCUACGCUUCGGCAUGACGCAGACGGGCAGGCCACCCUGUUGAACCUCCUGCUGCGGAAUUACCUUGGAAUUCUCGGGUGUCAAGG", "log2 enrichment": 0.00876}
{"Oligonucleotide": "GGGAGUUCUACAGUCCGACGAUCUCCUCAAGUCCUGUGCUACACAUCGUAUGUACCGAAUCGGCGGCGGGGCGGGAAAGUAUUAUGUUACGCCGUUCGGAUCUGCACUUCCAGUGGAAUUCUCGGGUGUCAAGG", "log2 enrichment": 0.945}
{"Oligonucleotide": "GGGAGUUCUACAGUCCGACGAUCGUCCUGUGCUACACAUCGUAUGUACCGAAUCGGGUUUUUGGGAAAGGGAAAAAAAGGGAAAGUAUUAUGUUACGCCGUUCGGAUCUGCACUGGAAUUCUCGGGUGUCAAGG", "log2 enrichment": -0.835}
{"note": "For quick reference, copied from above (study 4):"}
{"Oligonucleotide": "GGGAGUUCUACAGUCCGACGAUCUCAAGUCCUGUGCUACACAUCGUAUGUACCGAAUCGGGGUUGGGUUGGGGUUGGAAAGUAUUAUGUUACGCCGUUCGGAUCUGCACUUCCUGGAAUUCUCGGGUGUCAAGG", "log2 enrichment": -0.696}
{"Oligonucleotide": "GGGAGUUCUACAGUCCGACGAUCUAACUUUAGAGGAGGAUCUGAUGGAUAUGGCAGUGGACGUGGAUUUGGGGAUGGCUAUAAUGGGUAUGGAGGAGGACCUCGAGGUGGCAAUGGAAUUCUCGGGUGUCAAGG", "log2 enrichment": 0.752}
{"Oligonucleotide": "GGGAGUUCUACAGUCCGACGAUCUCCUGCCAACCUCUCUUAAUGCUCUGAGAGCCUCUGGUGUUGACAUAGAAGAGGAAACGGAGAAGAACCUGGAAAAGGUACAGACUAUCAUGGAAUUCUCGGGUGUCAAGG", "log2 enrichment": -2.62}
{"Oligonucleotide": "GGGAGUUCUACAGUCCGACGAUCUGGGAGGUGGAUUUUGUUUAUUUUUUUAGCUCAUUUCCAGGGGUGGGAAUUUUUUUUUAAUAUGUGUCAUGAAUAAAGCUGUUUUUGAAAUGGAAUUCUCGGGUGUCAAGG", "log2 enrichment": 0.159}
